Assay results from different studies.
Parts stem from different laboratories: compare values within a part only.
UniProt Q9UK32, sequence (whole entry, looked up): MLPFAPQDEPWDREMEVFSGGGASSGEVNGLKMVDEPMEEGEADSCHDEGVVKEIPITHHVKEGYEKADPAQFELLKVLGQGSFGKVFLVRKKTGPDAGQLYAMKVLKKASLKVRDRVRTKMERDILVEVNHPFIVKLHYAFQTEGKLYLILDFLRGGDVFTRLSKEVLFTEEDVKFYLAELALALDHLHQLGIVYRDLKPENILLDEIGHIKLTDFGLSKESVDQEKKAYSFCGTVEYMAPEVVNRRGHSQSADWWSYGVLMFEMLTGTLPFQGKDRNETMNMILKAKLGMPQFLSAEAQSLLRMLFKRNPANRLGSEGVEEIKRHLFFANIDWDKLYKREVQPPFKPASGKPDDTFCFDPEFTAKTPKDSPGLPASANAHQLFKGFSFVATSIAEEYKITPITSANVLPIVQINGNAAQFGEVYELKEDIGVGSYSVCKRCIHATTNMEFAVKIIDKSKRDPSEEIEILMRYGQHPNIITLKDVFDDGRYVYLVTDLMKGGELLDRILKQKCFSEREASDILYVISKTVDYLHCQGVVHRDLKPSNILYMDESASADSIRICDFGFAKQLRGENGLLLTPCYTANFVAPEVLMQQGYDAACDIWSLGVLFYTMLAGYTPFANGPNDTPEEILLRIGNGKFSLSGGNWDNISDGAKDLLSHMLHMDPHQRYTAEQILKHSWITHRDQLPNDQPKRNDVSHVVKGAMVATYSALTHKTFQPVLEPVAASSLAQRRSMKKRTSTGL
UniProt P37023, sequence (whole entry, looked up): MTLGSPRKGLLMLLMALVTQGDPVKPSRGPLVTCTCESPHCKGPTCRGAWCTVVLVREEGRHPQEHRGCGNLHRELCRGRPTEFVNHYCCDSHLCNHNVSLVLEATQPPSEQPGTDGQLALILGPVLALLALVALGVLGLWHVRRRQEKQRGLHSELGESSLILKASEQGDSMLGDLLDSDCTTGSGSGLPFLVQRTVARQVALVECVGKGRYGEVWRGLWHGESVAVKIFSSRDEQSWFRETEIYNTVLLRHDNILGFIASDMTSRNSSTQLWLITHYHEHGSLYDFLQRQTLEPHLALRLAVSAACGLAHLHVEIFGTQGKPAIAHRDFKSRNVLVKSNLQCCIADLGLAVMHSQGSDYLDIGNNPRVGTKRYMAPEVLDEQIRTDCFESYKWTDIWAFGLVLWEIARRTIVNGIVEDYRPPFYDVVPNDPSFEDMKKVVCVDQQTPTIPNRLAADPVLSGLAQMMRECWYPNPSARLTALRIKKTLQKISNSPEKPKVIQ
UniProt Q8NI60, sequence (whole entry, looked up): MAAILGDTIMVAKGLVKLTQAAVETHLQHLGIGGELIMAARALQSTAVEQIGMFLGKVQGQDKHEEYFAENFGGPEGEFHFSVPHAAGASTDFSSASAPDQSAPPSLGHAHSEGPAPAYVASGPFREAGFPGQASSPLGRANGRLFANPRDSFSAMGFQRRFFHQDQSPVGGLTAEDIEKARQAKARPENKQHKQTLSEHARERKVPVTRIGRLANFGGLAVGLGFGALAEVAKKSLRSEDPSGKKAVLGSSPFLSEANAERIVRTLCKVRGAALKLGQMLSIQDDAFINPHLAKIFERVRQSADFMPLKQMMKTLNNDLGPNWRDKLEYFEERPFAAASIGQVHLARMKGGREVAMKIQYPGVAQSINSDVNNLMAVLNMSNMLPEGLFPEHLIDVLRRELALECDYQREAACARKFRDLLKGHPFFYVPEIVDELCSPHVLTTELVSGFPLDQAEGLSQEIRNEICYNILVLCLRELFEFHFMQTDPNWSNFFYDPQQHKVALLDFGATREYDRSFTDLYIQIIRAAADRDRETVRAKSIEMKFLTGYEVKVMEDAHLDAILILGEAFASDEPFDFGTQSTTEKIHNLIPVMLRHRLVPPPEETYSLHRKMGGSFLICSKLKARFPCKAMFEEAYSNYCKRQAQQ
UniProt O75385, sequence (whole entry, looked up): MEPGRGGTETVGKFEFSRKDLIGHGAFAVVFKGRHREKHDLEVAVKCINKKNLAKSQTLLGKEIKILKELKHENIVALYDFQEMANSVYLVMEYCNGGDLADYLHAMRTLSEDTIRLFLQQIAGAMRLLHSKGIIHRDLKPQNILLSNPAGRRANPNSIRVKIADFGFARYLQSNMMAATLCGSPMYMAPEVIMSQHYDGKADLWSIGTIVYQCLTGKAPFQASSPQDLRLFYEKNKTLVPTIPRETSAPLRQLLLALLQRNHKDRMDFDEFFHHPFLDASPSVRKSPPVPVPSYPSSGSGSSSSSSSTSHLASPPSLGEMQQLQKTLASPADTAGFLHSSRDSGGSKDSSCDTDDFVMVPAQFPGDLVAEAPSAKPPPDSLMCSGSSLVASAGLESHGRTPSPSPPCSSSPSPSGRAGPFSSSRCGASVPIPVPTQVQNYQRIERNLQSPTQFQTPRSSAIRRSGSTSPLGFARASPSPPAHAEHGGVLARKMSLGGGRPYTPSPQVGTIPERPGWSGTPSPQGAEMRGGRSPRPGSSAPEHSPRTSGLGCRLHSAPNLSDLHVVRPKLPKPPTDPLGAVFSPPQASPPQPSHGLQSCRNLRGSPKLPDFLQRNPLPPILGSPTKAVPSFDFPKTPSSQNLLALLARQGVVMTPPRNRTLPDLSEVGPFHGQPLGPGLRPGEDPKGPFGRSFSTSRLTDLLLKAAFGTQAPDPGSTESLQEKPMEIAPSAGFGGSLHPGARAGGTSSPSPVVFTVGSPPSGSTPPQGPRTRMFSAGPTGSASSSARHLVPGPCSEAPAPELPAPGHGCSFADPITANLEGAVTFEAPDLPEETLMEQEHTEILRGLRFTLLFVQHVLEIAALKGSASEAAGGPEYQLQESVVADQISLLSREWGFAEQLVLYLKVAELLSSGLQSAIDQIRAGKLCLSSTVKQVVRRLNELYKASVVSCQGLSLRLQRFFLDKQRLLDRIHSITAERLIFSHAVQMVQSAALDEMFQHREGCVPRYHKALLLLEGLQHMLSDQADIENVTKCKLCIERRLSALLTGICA

Sample 1
Target: Sal-like protein 4, full length isoform A (SALL4, Homo sapiens, UniProt Q9UJQ4, residues 1-1053)
UniProt Q9UJQ4, sequence (whole entry, looked up): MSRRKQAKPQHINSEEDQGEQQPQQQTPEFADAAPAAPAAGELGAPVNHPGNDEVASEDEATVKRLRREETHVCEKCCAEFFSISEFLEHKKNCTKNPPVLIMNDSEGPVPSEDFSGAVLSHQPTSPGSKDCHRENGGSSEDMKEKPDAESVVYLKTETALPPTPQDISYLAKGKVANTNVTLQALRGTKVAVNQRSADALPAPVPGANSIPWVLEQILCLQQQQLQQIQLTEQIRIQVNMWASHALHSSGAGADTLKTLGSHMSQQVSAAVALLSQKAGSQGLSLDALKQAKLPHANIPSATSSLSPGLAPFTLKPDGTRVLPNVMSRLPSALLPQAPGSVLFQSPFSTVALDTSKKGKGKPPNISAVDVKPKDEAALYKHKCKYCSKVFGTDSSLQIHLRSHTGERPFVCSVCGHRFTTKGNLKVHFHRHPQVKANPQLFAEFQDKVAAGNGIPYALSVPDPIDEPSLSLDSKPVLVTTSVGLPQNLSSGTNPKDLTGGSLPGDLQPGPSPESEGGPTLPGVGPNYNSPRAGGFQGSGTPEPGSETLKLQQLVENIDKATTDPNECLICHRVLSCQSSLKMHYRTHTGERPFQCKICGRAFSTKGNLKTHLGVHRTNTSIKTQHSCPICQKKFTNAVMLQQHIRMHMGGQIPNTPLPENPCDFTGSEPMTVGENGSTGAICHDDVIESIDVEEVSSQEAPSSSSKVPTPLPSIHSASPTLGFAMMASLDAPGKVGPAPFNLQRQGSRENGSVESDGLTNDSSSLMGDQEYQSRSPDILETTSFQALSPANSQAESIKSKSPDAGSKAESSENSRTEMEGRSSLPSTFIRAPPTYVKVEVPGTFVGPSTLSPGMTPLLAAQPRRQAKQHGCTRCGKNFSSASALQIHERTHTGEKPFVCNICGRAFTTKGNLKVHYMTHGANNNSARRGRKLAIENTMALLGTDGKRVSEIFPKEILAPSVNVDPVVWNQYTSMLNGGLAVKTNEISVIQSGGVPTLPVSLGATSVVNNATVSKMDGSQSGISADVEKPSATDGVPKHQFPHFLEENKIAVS
Method: universal PBM
Molecule type: double-stranded DNA, one strand shown
Matrix: in vitro
Concentration: 600 nM
Notes: 8-mer, flanks averaged, mean of replicates
Reading: higher = stronger binding
Measurement: E-score
Sequence = ACAGGTCG; result = -0.131
Sequence = GCCGATCA; result = 0.0133
Sequence = CTACACTA; result = 0.153
Sequence = CGTTTCGA; result = -0.0211
Sequence = ACCTAGGA; result = 0.00341
Sequence = ATTGGTAG; result = 0.261
Sequence = AGGTGACG; result = -0.262
Sequence = AAGTGCTA; result = 0.196

Sample 2
Target: SRSF protein kinase 1 (SRPK1, Homo sapiens, UniProt Q96SB4)
UniProt Q96SB4, sequence (whole entry, looked up): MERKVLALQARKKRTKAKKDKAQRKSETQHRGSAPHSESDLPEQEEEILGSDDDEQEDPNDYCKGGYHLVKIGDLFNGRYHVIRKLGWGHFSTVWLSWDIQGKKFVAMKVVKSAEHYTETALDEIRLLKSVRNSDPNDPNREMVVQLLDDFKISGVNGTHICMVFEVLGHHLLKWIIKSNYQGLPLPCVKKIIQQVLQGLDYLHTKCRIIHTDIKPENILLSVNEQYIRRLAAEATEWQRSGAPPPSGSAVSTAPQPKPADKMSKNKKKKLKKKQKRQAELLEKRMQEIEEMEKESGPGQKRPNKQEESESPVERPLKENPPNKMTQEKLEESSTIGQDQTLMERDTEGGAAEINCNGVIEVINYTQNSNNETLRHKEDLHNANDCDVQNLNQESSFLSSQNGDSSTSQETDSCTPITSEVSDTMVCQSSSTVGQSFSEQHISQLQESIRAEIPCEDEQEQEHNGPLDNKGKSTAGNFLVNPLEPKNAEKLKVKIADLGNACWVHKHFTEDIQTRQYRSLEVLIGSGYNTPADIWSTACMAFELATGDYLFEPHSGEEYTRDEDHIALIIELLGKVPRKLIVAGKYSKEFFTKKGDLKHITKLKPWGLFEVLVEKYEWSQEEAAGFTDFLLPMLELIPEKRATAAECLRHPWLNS
Observed: enzyme activity
Action: inhibitor
Concentration: 0.5 µM
Relative to: control
Measurement: remaining activity
Compound = c1ccc(-c2cnc(Nc3ccc(OCCN4CCCC4)cc3)s2)cc1; result = 99.9%
Compound = COc1cc2c(cc1OC)-c1[nH]nc(Nc3cccc(F)c3)c1C2; result = 101%
Compound = O=C1c2ccccc2-c2n[nH]c3cccc1c23; result = 94.3%
Compound = O=C(Nc1cccc(Nc2nccc(Nc3cccc(C(F)(F)F)c3)n2)c1)C1CC1; result = 104%
Compound = Cc1cc2ncc(-c3ccccc3)nc2cc1C; result = 103%
Compound = N#C/C(=C\c1ccc(O)c(O)c1)C(=O)NCc1ccccc1; result = 104%
Compound = COc1cc2ncnc(Nc3cccc(Cl)c3)c2cc1OC; result = 102%
Compound = C[C@@H]1CCN(C(=O)CC#N)C[C@@H]1N(C)c1ncnc2[nH]ccc12; result = 99.8%
Compound = N#Cc1c(NC(=O)c2cccc3ccccc23)sc2c1CCCC2; result = 102%
Compound = Nc1cccc(-c2cc3c(Oc4cccc(O)c4)ncnc3[nH]2)c1; result = 107%
Compound = Cn1nc2c3c(cccc31)C(=O)c1ccccc1-2; result = 99.7%

Sample 3
Compound: C[C@@]1(Cc2ccc(C#N)cc2)C(=O)N(c2cc(Cl)cc(Cl)c2)c2ncc(C(=O)NC3(c4nc(C5CCC5)no4)CC3)n21
Observed: cell-free assay
Method: competition with immobilised ligand
Concentration: 1 µM
Measurement: remaining binding
target = MAPK8 (Homo sapiens, UniProt P45983); result = 100%
target = ULK1 (Homo sapiens, UniProt O75385); result = 100%
target = MAK (Homo sapiens, UniProt P20794); result = 100%
target = CDK18 (Homo sapiens, UniProt Q07002); result = 100%
target = COQ8A (Homo sapiens, UniProt Q8NI60); result = 90%
target = Ribosomal protein S6 kinase alpha-6, N-terminal kinase domain (RPS6KA6, Homo sapiens, UniProt Q9UK32); result = 100%
target = ACVRL1 (Homo sapiens, UniProt P37023); result = 100%

Further values, each from its own experiment
SMILES = CCC[C@@H]1NC(=O)CSC[C@@H](C(=O)OCC)N(C)C(=O)[C@H](CC(C)C)NC(=O)[C@H](C)N(C)C(=O)[C@@H](CC(C)C)NC(=O)[C@H](C)N(C)C(=O)[C@@H]2CCCN2C(=O)[C@@H](CC(C)C)NC(=O)CN(C)C1=O; test system = hydrocarbon/water; measurement = logD; result = 0.526

A few entries again (sample 3):
target = ULK1 (Homo sapiens, UniProt O75385); result = 100%
target = MAK (Homo sapiens, UniProt P20794); result = 100%
